Measured values from different studies.
Each numbered part is a random draw from the data of one study; scales do not carry over between parts. Positions count from the first letter of the parent shown.

Series 1
Target: CCND3, cyclin fold, Cln2 fusion (human)
Method: yeast growth competition, sequencing
Sample: yeast
Notes: weak parent motif
Baseline: not given
Direction: higher = stronger binding
Quantity: normalised enrichment score
Starting sequence: BRCA2 docking peptide (human); PSIKRNLLNEFDR; partner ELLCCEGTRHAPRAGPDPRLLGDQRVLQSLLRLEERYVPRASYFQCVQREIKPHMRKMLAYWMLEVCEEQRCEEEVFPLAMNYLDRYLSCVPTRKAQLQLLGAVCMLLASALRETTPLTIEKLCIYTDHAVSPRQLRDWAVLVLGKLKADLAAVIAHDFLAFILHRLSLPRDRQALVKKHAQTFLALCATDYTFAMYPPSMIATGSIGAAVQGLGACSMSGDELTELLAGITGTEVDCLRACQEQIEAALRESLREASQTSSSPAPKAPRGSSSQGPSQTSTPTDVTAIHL
I3G: 0.191
P1I: 0.108
N9P: 0.144
D12F: 0.173
N6H: 0.165
L7N: -0.0192
S2Q: 0.21
K4G: 0.0268
N9I: 0.214
L8G: 0.0617
F11K: 0.139
N9Y: 0.154
I3N: 0.0857
N9T: 0.257
R13W: 0.176
N9G: 0.17
I3K: 0.152

Series 2
Target: RNA binding protein fox-1 homolog 2, RRM domain, GST-SBP tag (RBFOX2, Homo sapiens, UniProt O43251-10, residues 100-194)
Method: RNA Bind-n-Seq
Molecule type: RNA
Sample: in vitro
Tested at: 365 nM
Notes: natural RNA segment, single round, ends assumed
Baseline: no-protein control
Direction: higher = stronger binding
Quantity: RBNS enrichment (R)
Shared flanks, not repeated: GGGAGUUCUACAGUCCGACGAUC … UGGAAUUCUCGGGUGCCAA
Construct (chain): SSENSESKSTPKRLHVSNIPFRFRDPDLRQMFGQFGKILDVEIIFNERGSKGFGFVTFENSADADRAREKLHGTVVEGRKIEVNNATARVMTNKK
GACUAAGGGUAGAGACUAAGGGGAGACUUGUUUUUCUGAAGUAGACUGCUUUCACUCGGCCUGAUGGACAAGCCCGCGUGUGUUCACGUCUGUGUGUAACUCACCCAGAG: 0.196
GGCUUUAAGGUAGCAUGGCUCGAUUGCUGUCGACUUAAUGUUCCACUGCACAGCAAUUCACGGCCAGUGAAUGUUACACACAUCUUGCUAGACUAGUAUAAAAAUCAUUG: 0.666
CUGUUUGCCCACCUUUUCCAGGUGUAAGAGGCAGAGAGCCUGGACAGCUUUCUCUCUCAGCCAUUGUUCACCCCACUUGAAAAUUCAAACAAGAAAACUUUGCUUCAAAG: 0.397
GAUUUUGCCCUGUAACUGCAUGUACAUGGUGUAUUUUGCCAUUAAGUCUUUUAUUUGUGGCAAUUUUGCCUUAGUAGGCGCUUGGCGUAGUUUCUAUUUUAUAGAAUAUU: 2.76
UUAUUUUACGCAUGGUCCAUAAAAUGAUUUGAUACUCUUUUAAAGUGUAUGUGGUCCAUUAGAAAGGUUAAUUCCAACAAAGCAUUUAGUUUACAGAUCAUAAUCCUAAG: 5.04
UGGAACUAAACAGAACAACCAUUUACCCCUCCUUUUCAAACUAGAGAAUAAAGAUUUGGUUUUAGAACUGGUGGCUGGGGAGUGUUACUUUUUCUGGGGGAGCUGCGACA: 0.594
CACGUGGCUCUUGGACCUUGAUUUAGAAAGGCUCAUACUCCCAGGAAAACACCCAUUUUGAUACAAUGUAAACGUUCGUGUUCACCCUUGGAUACAUGUUGAAAGAGCUC: 0.493
AUCCCAGGUGCGGUUUCCCUUGCACUAGGCCGAACCUAUAGUAUAGAAAUAUUAUCUAUUUUAUUACCUUGAAUAUUUAAUAUUUUUCACUGGGAGGUUUGAAGCUUACA: 0.417
UUUCAGUGUAAUUAAUUCAACUGCACUUAACACUAAUGUCCGUGUUGGUAUAGAAAUGUCUAAAUCCUAUACUCUAGUUGAGGAAGAUCUUCCAUAAUUUUAUGGUAUUA: 0.718
AAAGUUUUUAUCAUUGAAGACAAUAUUGAACAACCCCCUAUUUUGUGGGGAUUGAGAAGGGGUGAAUAGAGGCUUGAGACUUUCCUUUGUGUGGUAGGACUUGGAGGAGA: 1.3
CCACACUUGACAUGCGGAGCAAUCCUGCAUGUUGGUCCCCAUCUCCCCCACUAGAAACCCACUUCCAGAGUCAUGUUUGCAUCACAGUCAAAAGAGAAGUCUGUGCACCU: 0.747
AGAGAGUUAUGCUACAAUUAUUUCUUGGUUUCCACUUGCAAUGGUUAAUUAAGUCCAAAAACAGCUGUCAGAACCUCGAGAGCAGAACAUGAGAAACUCAGAGCUCUGGA: 0.634

Series 3
Target: Transcription factor SOX-2, HMG box (SOX2, Homo sapiens, UniProt P48431, residues 19-118)
Chain of UniProt P48431 (19-118, looked up): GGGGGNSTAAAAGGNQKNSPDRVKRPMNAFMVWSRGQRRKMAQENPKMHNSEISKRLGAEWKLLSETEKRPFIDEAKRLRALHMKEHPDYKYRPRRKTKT
Method: protein-binding microarray
Molecule type: double-stranded DNA, one strand shown
Sample: in vitro
Tested at: not given
Notes: k-mer, scored over probes, only values ≥0.25
Direction: higher = stronger binding
Quantity: E-score
ACAATGG: 0.471
AAAATAA: 0.267
GTGAATA: 0.376
CAATAGA: 0.389
CATTCAC: 0.392
AAAACGG: 0.329
AAGAATG: 0.351
GAATAAA: 0.35
TACAATA: 0.423
ATTAAAA: 0.277
TAGAATA: 0.339
GTAATTA: 0.28
TAACAAA: 0.378
AATGTAA: 0.335
ATAATTG: 0.459
AAAAGGC: 0.33
ATTATAG: 0.269
ATGTGAA: 0.349
TAATACA: 0.294
CTATTGA: 0.373
TTGTAAA: 0.29
AATTCAT: 0.458
ATTGTAA: 0.421
TAAATTA: 0.339
GAATGAA: 0.327

Series 4
Target: Histone acetyltransferase KAT6A, winged helix 2, GST fusion (KAT6A, Homo sapiens, UniProt Q92794, residues 85-181)
Method: protein binding microarray
Molecule type: double-stranded DNA, one strand shown
Sample: in vitro
Tested at: not given
Notes: 8-mer, flanks averaged, mean of 2 arrays, mostly near background
Baseline: not given
Direction: higher = stronger binding
Quantity: E-score
Target sequence (chain): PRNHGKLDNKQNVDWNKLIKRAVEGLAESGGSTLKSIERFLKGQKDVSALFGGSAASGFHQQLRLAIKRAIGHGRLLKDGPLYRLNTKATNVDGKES
GCCGTATA: 0.147
GCATTGCA: 0.0892
GACTAGTC: -0.172
GTGTCACA: -0.024
TTGCCCAA: 0.122
AGTAGAGG: -0.229
TACCTATA: -0.319
CCGTAGAG: 0.0178
TAGTGGCA: 0.0164
AACAGGAC: -0.0838
AAGTGATG: -0.0412
CGCCCTTA: 0.0437
CGCATACG: 0.19
TCCAAACA: -0.0385
CCTTGTAG: -0.065
TATGTACA: -0.236
CCATCGAG: 0.0565
ATGCATCC: -0.00783
CTAGACGA: -0.0696
CAACGTTG: -0.0971

Series 5
Target: ABI1, truncated, D143A, DHFR fusion (Arabidopsis thaliana)
Method: DHFR PCA, deep sequencing
Sample: yeast
Notes: methotrexate growth selection, single substitutions
Added: (+)-ABA 0 µM
Baseline: wild-type fitted maximum
Direction: higher = stronger binding
Quantity: relative binding score
Starting sequence: PYL1, truncated, DHFR fusion (Arabidopsis thaliana); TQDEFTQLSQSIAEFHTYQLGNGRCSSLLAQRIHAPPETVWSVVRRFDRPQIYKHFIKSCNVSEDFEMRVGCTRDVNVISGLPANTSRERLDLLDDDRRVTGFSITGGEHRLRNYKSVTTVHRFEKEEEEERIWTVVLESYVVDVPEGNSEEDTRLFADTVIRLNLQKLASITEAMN; partner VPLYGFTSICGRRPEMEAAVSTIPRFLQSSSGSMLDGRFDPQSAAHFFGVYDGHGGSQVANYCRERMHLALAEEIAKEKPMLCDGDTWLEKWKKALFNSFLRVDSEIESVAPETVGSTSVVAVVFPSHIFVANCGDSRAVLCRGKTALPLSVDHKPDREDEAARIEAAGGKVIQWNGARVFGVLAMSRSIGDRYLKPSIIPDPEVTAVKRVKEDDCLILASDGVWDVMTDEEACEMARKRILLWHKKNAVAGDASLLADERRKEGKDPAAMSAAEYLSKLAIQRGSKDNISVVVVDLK
I52Y: 3.47%
H122W: -8.03%
R163Y: -15.5%
P37C: 2.94%
A175D: 11.6%
P83M: 1.2%
V118N: -4.12%
T86K: 8.96%
E130H: 26.6%
R132V: 16.4%
A35L: 0.834%
R90N: -1.86%
L112N: 1.76%
L112V: -1.87%
G21I: 6.86%
E147C: 5.05%
L28K: 4.3%
A35G: -0.173%
L164E: 5.2%
F66C: 7.21%
L82F: 68.9%
S140W: 7.36%
A30L: 13.9%

Series 6
Target: JDP2, bZIP domain (human)
Method: DHFR protein complementation
Sample: yeast
Notes: single substitutions, most at no-binding floor
Baseline: wild-type JUN-FOS pair
Direction: higher = stronger binding
Quantity: binding fitness
Starting sequence: JUN, bZIP domain (human); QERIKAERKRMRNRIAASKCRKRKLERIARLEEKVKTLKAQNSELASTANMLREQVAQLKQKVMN; partner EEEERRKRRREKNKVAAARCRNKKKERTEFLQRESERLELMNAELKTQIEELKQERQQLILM
K34F: 0.2 natural log
V35R: 0.0317 natural log
A29D: 0.272 natural log
S47W: 0.211 natural log
E33K: 0.115 natural log
I28Y: 0.198 natural log
A57W: 0.221 natural log
S47N: 0.274 natural log
T48I: 0.204 natural log
K34V: 0.274 natural log
E44P: -0.305 natural log
A46F: 0.175 natural log
E32F: 0.11 natural log
Q55K: 0.235 natural log
E44A: 0.273 natural log
N42K: 0.125 natural log

Series 7
Target: Interferon regulatory factor 5, full length, phosphomimetic (IRF5, Homo sapiens, UniProt Q13568-2, residues 1-514, S451D/S453D/S456D/S462D)
Method: protein-binding microarray
Molecule type: double-stranded DNA, one strand shown
Sample: in vitro
Tested at: 940 nM top
Notes: 60-bp whole probe
Added: salmon DNA 0.4 mg/ml
Baseline: random background probes
Direction: higher = stronger binding
Quantity: fitted relative affinity
Shared flanks, not repeated: GCCTAGCAC … GTCTTGATTCGCTTGACGCTGCTG
GACGGACTGGGGTTTCTGGACGTGCTA: 0.0867 z-score
GACGGTCTCGGTCGCGGGACGTGCTAG: 3.32 z-score
GACGGTTTCGACTAACGGGACGTGCTA: 8.78 z-score
CAGCTTTTATCCCTGACAGAGTGCTAG: 0.331 z-score
GACGGTTTCGGGACTCGGGACGTGCTA: 6.42 z-score
TTAGTTTTCAGTTCCGATTAGTGCTAG: 2.61 z-score
TTAGATTTCGGTACTGGATTAGTGCTA: 2.11 z-score
TCATTTTTAGCTTGCAAACTGTGCTAG: -0.21 z-score
GAGGATATCAGTATCGAGACGTGCTAG: 1.58 z-score
GACGGTATCCTTCTCCTGTCGTGCTAG: 1.49 z-score
AACAATATATATATTATATAGTGCTAG: -0.153 z-score
GACGGATTGGGTATCGGGACGTGCTAG: 1.33 z-score
GACGGTATCCTTATCCCGACGTGCTAG: 0.44 z-score
TTAGGTATCCTTTTCCTTGAGTGCTAG: 0.491 z-score
ATAGGTTTCCTTATCCTTTAGTGCTAG: 1.39 z-score
GACGGTATCGACTTTCTGGACGTGCTA: 4.08 z-score
GACGGTATCGCCTTTCGGGACGTGCTA: 2.98 z-score
TCATTTGTATTTTTGATACTGTGCTAG: 0.487 z-score

A few entries again (series 1):
N9P: 0.144
D12F: 0.173
N6H: 0.165
L7N: -0.0192
S2Q: 0.21
K4G: 0.0268
N9I: 0.214
L8G: 0.0617
F11K: 0.139
N9Y: 0.154
I3N: 0.0857
N9T: 0.257
R13W: 0.176
